# Experimental data of several laboratories.
# Each numbered part is a random draw from the data of one study; scales do not carry over between parts.
# UniProt P49459, sequence (whole entry, looked up): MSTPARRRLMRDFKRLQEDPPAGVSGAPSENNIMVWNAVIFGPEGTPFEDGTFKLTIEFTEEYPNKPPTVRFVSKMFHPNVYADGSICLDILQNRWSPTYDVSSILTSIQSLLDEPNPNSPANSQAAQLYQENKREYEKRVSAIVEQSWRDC

# Set 1 — Substance: HSPA5 (Homo sapiens, UniProt P11021); method: cross-linking MS; sample: cell fractions
partner,setting,cross-linked residues
"HYOU1 (Homo sapiens, UniProt Q9Y4L1)",together with: DHSO,E329 to D752
"CKAP4 (Homo sapiens, UniProt Q07065)",together with: DSSO,K81 to K287
"UBE2J2 (Homo sapiens, UniProt Q8N2K1)",together with: DSSO,K579 to S2
"MRC1 (Homo sapiens, UniProt P22897)",together with: DSSO,K326 to K1292
"HSP90B1 (Homo sapiens, UniProt P14625)",together with: DHSO,D348 to E351
"PDIA6 (Homo sapiens, UniProt Q15084)",together with: DHSO,E546 to E247

# Set 2 — method: protein-binding microarray; molecule type: double-stranded DNA, one strand shown; sample: in vitro; tested at: not given; direction: higher = stronger binding
# Target: Protein max, full length (MAX, Homo sapiens, UniProt P61244-2, residues 1-151)
# Setting: k-mer, scored over probes, only values ≥0.25
Oligonucleotide,E-score
TGCGGCAA,0.257
CACACGTG,0.496
AACATGAG,0.347
CCGCACGC,0.399
CATGTTGG,0.308
AAAGCGTG,0.435
TCACACGA,0.265
GTGTTACA,0.28

# Further values, each from its own experiment
# B1: RNF103 RING domain (UniProt O00237); chain WPADMLHCTECVVCLENFENGCLLMGLPCGHVFHQNCIVMWLAGGRHCCPVCRWPSYKKKQPY
Substance,target or system,test,test system,setting,scale,measurement,value
B1 (RNF103 RING domain),UBE2A UBC core domain (UniProt P49459),yeast two-hybrid,yeast,mostly zero background,"reference: not given, higher = stronger interaction",lacZ reporter activity,0
"PNN (Homo sapiens, UniProt Q9H307)","ACIN1 (Homo sapiens, UniProt Q9UKV3)",cross-linking MS,cells,together with: BSPNO,,cross-linked residues,K157 to K1073

# A few entries again (set 2):
Oligonucleotide,E-score
AAAGCGTG,0.435
TCACACGA,0.265
